Assay results collected from several papers.
Every numbered part comes from another study and shows a few of its results, in no order.

Sample 1 — method: RNA Bind-n-Seq; molecule type: RNA; sample: in vitro; concentration: 1 µM; setting: whole 134-nt RNA, ends assumed; together with: 150 mM KCl; relative to: input library; direction: higher = stronger binding
Target: Ras GTPase-activating protein-binding protein 1, RRM domain (G3BP1, Homo sapiens, UniProt Q13283)
Sequence of UniProt Q13283 (whole entry, looked up): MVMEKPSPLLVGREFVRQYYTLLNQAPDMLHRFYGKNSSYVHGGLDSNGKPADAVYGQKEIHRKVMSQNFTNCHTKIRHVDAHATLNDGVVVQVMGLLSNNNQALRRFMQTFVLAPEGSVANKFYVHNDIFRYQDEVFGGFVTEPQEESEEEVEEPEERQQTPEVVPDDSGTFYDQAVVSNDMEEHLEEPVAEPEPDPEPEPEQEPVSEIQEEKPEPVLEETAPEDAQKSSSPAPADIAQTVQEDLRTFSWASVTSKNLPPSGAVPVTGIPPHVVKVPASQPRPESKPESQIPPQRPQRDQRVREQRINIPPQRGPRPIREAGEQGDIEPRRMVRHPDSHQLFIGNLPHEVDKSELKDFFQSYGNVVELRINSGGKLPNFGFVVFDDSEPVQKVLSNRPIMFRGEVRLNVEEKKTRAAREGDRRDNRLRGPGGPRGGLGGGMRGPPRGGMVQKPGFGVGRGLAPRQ
Shared flanks, not repeated: GGGAGUUCUACAGUCCGACGAUC … UGGAAUUCUCGGGUGUCAAGG
Strand	log2 enrichment
UGACUUUAGGAGAUACCUUAACUCGACGUUCCAUUAGCCAGCAGAAGUCCGGAGUUUCCAUUACCAUUGAUGACCCAGUCCGAACUGCCC	-0.0284
UCAAGUCCUGUGCUACACAUCGUAUGUACCGAAUCGGGUUUGGGUGGGAAAGGGAAAGUAUUAUGUUACGCCGUUCGGAUCUGCACUUCC	0.689
AAGUCCUGUGCUACACAUCGUAUGUACCGAAUCGGUUUGGAAAAAGGAAAAAAAGGAAAGUAUUAUGUUACGCCGUUCGGAUCUGCACUU	0.0671
UCCUGUGCUACACAUCGUAUGUACCGAAUCGGGGAAAAAGGGGAGGGGUUUUUUUGGGGAAAGUAUUAUGUUACGCCGUUCGGAUCUGCA	0.634
UCAAGUCCUGUGCUACACAUCGUAUGUACCGAAUCGGGUUGGGUUGGGGUUGGGGAAAGUAUUAUGUUACGCCGUUCGGAUCUGCACUUC	1.09

Sample 2 — method: Spec-seq; molecule type: double-stranded DNA, one strand shown; sample: in vitro; concentration: not given; setting: whole probe, mean of replicates; relative to: not given; direction: lower = stronger binding; shared flanks, not repeated: GAGTCGTCTCGTCAGCAC … CCGTAGAGCACTCAGGTC
Target: POU, POU domain (Salpingoeca helianthica)
Target sequence (chain): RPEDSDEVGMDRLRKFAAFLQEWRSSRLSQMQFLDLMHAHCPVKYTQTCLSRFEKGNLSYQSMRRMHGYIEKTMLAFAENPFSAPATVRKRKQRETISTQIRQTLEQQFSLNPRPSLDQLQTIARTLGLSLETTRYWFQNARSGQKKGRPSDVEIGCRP
Strand	relative binding energy [ln ratio]
GGAATAAT	0.568
TCTGTAAT	0.478
CTTTTAAT	-0.0602
ATGCTGGT	1.37
ATCCGTAT	1.31
ATGCTTCG	0.998

Sample 3 — method: RNA Bind-n-Seq; molecule type: RNA; sample: in vitro; concentration: 365 nM; relative to: no-protein control; direction: higher = stronger binding
Target: RNA binding protein fox-1 homolog 2, RRM domain, GST-SBP tag (RBFOX2, Homo sapiens, UniProt O43251-10, residues 100-194)
Setting: natural RNA segment, single round, ends assumed
Residues (chain): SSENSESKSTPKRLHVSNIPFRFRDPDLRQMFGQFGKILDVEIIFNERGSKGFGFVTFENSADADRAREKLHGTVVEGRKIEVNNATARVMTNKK
Strand	RBNS enrichment (R)
GGGAGUUCUACAGUCCGACGAUCACUGAAUAUUUUCUAUAAUAUGGCCUUACCUGCACCCUGCGGUGUGGAUUUGGGCUGCCUUGGAAGUGCCUUUAUCUGCCUCUUCUGUGACAUUUUGAGGUCUGCUUAGCUGGAAUUCUCGGGUGCCAA	0.292
GGGAGUUCUACAGUCCGACGAUCACAUCCUUGACUUUCAUUCCCCCAACCUCCAGCAGGUUGGCCCCAAUCCUCUUCACCUCUGUGUUUUCUUCUAGAAGAUGCAUUUUGGGUCUGAGAGGAGCAUUUUCCUGUGGAAUUCUCGGGUGCCAA	0.257
GGGAGUUCUACAGUCCGACGAUCAAAUCAUUGUGCUACUCUGUGGAUGAGGGUUCAUUCUUAUGUAUGUUCAGAUGUCAUGUGCUGUCUACAUCAUGAGCUUUGGCUUAGGAGAACCUACAAAGCUGGCAGAGUGGAAUUCUCGGGUGCCAA	0.676
GGGAGUUCUACAGUCCGACGAUCUGUAUUUGAAAAAUAAUCUUCCUGUGUACUUUCUCAAACCUGCGCUCAGUAAUAUACUUUAUUCUUUGAAGAUUUAAUUUAAAAACUUCAUAGAAAAUCCUUUUUUGCUUUGGAAUUCUCGGGUGCCAA	1.41

Further values, each from its own experiment
Substance	target	assay	system	conditions	how to read	quantity	result
PhoQ, residues 284 288 289 292 302 303 QWQEDG	PhoP, residues 12 14 15 18 19 SYFRT (Escherichia coli, UniProt P23836)	Sort-seq, measured: YFP reporter	E. coli	PhoQ-PhoP variant library, together with: 10 µM Mg2+	relative to: high Mg2+ state, higher = stronger signaling	fold induction	3.15

Some of these lines once more (sample 2):
Strand	relative binding energy [ln ratio]
ATGCTGGT	1.37
ATCCGTAT	1.31
